Measured values collected from several papers.
Every numbered part comes from another study and shows a few of its results, in no order. Changes are numbered by the printed parent chain.

Set 1 — method: protein binding microarray; form: double-stranded DNA, one strand shown; sample: in vitro; tested at: not given; relative to: not given; reading: higher = stronger binding
Target: Histone acetyltransferase KAT6A, winged helix 2, GST fusion (KAT6A, Homo sapiens, UniProt Q92794, residues 85-181)
Notes: 8-mer, flanks averaged, mean of 2 arrays, mostly near background
Residues (chain): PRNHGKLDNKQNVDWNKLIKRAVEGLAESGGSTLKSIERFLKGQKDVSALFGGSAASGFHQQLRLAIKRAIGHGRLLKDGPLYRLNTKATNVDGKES
| Oligonucleotide | E-score |
| --- | --- |
| GCAAATCC | 0.0934 |
| CCACTGCA | -0.0428 |
| ATGTGTTA | -0.0888 |
| AAAGCCGG | 0.139 |
| ATCTATAC | -0.0367 |
| CTCGGTCC | 0.0254 |
| AAATAAGC | 0.0101 |
| CTTCTTGA | 0.0348 |
| ATGTCCCC | -9e-05 |
| ACGGGCTG | 0.0336 |
| CGCTTGGC | 0.127 |
| ATCAACAC | 0.0138 |
| ATCCTCTC | 0.0315 |
| ACTGTGAA | -0.00138 |
| AAGACACG | 0.0494 |
| GATTAGCC | 0.068 |
| GCGGAGCA | 0.045 |
| CGCTATAG | -0.255 |
| CAAGCGCG | 0.115 |
| GGCCACAA | 0.0339 |
| CTTGAGGA | -0.0168 |
| CTGAGAAC | -0.00668 |

Set 2 — method: RNA Bind-n-Seq; form: RNA; sample: in vitro; tested at: 365 nM; relative to: no-protein control; reading: higher = stronger binding
Target: RNA binding protein fox-1 homolog 2, RRM domain, GST-SBP tag (RBFOX2, Homo sapiens, UniProt O43251-10, residues 100-194)
Notes: natural RNA segment, single round, ends assumed
All sequences stand within: GGGAGUUCUACAGUCCGACGAUC … UGGAAUUCUCGGGUGCCAA
| Oligonucleotide | RBNS enrichment (R) |
| --- | --- |
| AGCCCCUACUCAGCAGGGCUCUGGGAAUGUGCCUUCCUUAUUUUAGUUUCAGAAUUGCUGGGAAAGUUACCCCACUGGUGGGUGAGGAUCUAUCCUCAACCUACAUCCAG | 0.6 |
| CAGUUGUCAUGUCUUUUGGUUGUGAGCCUAUGCACCUUACCUUUAAUGGUUGAACCAUCUUUUCAGCCCAAACAGUUUAUUUCUAAAAAGUAGAUUUAAUGCUAGGGGCC | 0.826 |
| GACAUGAGAUCAGGGCCUGCCCCCUGGGGAUCACAGCCUCACCCCUGCCCCUGUGGGACUCAUCCUUGCCCAGGUGAGGGAAGGAGACAGGAUGAGGUCUCGACCCUGUC | 0.403 |
| UGACACCAAAAGGCUCAGCCCACCCCAACCCUAUCUCAUGUUCAGUCUGUCUAAUACAUGCCAGAGAUUUUUUUUUCAAAAAGUGCUUUAUCCCUACAAUGUACUGACAG | 0.4 |
| AUUUUGCAACUUACCUGUGAGCCUGCAAUUAUUUGAGGUUUUUGAGCAAUUGGUGUUUCUAUGUGUUUUCUAAAUAGAGAUGAUAUCUUUUUUUUUUUCACUUAGAAUUU | 0.593 |
| CACUGUUGUGGUCACAGCAGUGCCCUUGGACAGGGCAUUAAGGCUGACCCUGAAGGAGUGGUGCUGCCAGGCCUGUCCUGGCUUUCUGGGGUGUGCUGGGAGGAUUACCA | 0.391 |
| GUAUGUUUCUAUAUUUUGAAACAGGUAUGUAACUUCUUCAUUUGAAGGAUAAGCUGGUUUGUGUUAAGCAGUAUAAUAUUGAUUGGGUCUUUCGCAUCAUAUUCGUUAGC | 0.452 |
| GUCCUGCAUUUUAUUGACUGGGGUUUGAUCUCAGCUUCUGAAAAUGUUUAAAAAUUGGAAGGAAAUACUACUCAUAUCUUCAUUGUCACUUUGUCUUACCUCAAUUGAGU | 0.548 |

Set 3 — method: aptamer microarray, sandwich; form: DNA with 2'F-ANA; sample: in vitro; tested at: 200 nM; with: Cy3 exosite-II aptamer, 400 nM; reading: higher = stronger binding; oligonucleotide: GGTTGGTGTGGTTGG
Target: Prothrombin, mature alpha-thrombin (F2, Homo sapiens, UniProt P00734)
Notes: whole 15-mer aptamer, many near background
| Modification | mean fluorescence intensity [a.u.] |
| --- | --- |
| 2'F-ANA at 2 5 6 12 14 15 | 46 |
| 2'F-ANA at 1 2 6 7 8 9 11 14 15 | 63.8 |
| 2'F-ANA at 1 5 6 7 8 11 12 13 | 74.6 |
| 2'F-ANA at 2 3 7 13 15 | 820 |
| 2'F-ANA at 2 4 5 6 7 12 13 | 84 |
| 2'F-ANA at 1 2 3 4 5 6 7 8 11 12 13 | 81 |
| 2'F-ANA at 1 2 3 4 5 7 8 13 | 61.3 |
| 2'F-ANA at 1 3 9 11 12 13 15 | 357 |
| 2'F-ANA at 2 4 11 14 15 | 106 |
| 2'F-ANA at 2 3 5 6 10 11 12 13 14 | 55.3 |
| 2'F-ANA at 4 8 11 14 | 107 |
| 2'F-ANA at 1 3 4 8 10 11 12 13 14 15 | 105 |
| 2'F-ANA at 4 6 9 10 12 | 109 |
| 2'F-ANA at 2 3 4 8 9 11 12 15 | 752 |
| 2'F-ANA at 1 2 4 6 8 9 10 11 13 14 15 | 51 |
| 2'F-ANA at 3 4 5 9 10 12 13 15 | 56 |
| 2'F-ANA at 12 13 | 747 |
| 2'F-ANA at 1 2 5 6 7 8 9 11 13 | 52.3 |
| 2'F-ANA at 1 2 5 6 7 10 11 12 13 14 15 | 49.3 |
| 2'F-ANA at 2 3 5 6 15 | 92 |
| 2'F-ANA at 1 3 5 9 11 12 15 | 98.2 |

Set 4 — method: DHFR PCA, deep sequencing; sample: yeast; with: (+)-ABA 0.39 µM; relative to: wild-type fitted maximum; reading: higher = stronger binding
Target: ABI1, truncated, D143A, DHFR fusion (Arabidopsis thaliana)
Notes: methotrexate growth selection, single substitutions
Parent: PYL1, truncated, DHFR fusion (Arabidopsis thaliana); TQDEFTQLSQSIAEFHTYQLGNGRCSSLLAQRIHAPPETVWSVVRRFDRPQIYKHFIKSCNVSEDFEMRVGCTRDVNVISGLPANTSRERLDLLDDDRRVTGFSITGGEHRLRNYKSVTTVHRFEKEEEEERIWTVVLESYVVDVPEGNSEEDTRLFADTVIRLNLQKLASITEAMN; partner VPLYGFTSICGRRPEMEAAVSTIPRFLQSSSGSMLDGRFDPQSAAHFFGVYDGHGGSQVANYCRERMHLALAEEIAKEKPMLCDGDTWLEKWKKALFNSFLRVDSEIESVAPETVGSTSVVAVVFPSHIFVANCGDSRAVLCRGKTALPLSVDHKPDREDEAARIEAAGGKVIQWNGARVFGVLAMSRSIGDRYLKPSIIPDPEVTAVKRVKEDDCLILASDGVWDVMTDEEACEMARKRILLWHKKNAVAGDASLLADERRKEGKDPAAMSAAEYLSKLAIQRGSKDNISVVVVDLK
| Substitution | relative binding score [%] |
| --- | --- |
| T154Q | -34.7 |
| I79P | -7.55 |
| S150P | 8.91 |
| T160H | 5.98 |
| S171R | 54.9 |
| V62M | 10.7 |
| K126Y | 44 |
| I172Y | 1.52 |
| E174W | -3.22 |
| N149I | 28.1 |
| S87F | 25 |
| R46K | 15.4 |
| V76Q | 10.2 |
| S80A | 10.1 |

A few entries again (set 3):
| Modification | mean fluorescence intensity [a.u.] |
| --- | --- |
| 2'F-ANA at 2 5 6 12 14 15 | 46 |
| 2'F-ANA at 2 3 7 13 15 | 820 |
| 2'F-ANA at 4 6 9 10 12 | 109 |
| 2'F-ANA at 12 13 | 747 |
